Assay results from different studies.
Protocols differ between the studies behind these lines. Numbers after ± are the reported error. The star is where a group is joined.
rhlR: HTH-type quorum-sensing regulator RhlR (rhlR, Pseudomonas aeruginosa, UniProt P54292)
gdpP residues 84-659: gdpP, residues 84-659 (Bacillus subtilis, UniProt P37484)
KCNMA1 with beta-3 subunit: Calcium-activated potassium channel subunit alpha-1, with beta-3 subunit (KCNMA1, Homo sapiens, UniProt Q12791)
CNR1: Cannabinoid receptor 1 (CNR1, Homo sapiens, UniProt P21554)

`CCCCSS(C)(=O)=O`: GABA current “decreased” (Gabrg2/GABRB2/Gabra1 (Rattus norvegicus, UniProt P18508+P47870+P62813, C260A/C282A/C312A/C319A/C341A/F313C); covalent modifier, two-electrode voltage clamp; Xenopus laevis oocytes; 0.5 mM, labelled without GABA, together with: GABA EC10; baseline: before labelling).
`C[C@@H]1C[C@@H]([C@H](O)CC2CC(=O)NC(=O)C2)C(=O)[C@@H](C)C1` gave a half-life of 48 h (Bifunctional epoxide hydrolase 2 (EPHX2, Homo sapiens, UniProt P34913); immunoblot; HepG2; together with: protein synthesis inhibitor).
`O=C(Cc1cccc(F)c1)NC1CCOC1=O` (centres unmarked) has an activation of 79% (rhlR; reporter gene, agonist; Escherichia coli reporter strain; 100 µM; baseline: BHL 900 µM).
With `CO[C@@H]1[C@@H]2OP(=O)(O)OC[C@H]3O[C@@H](n4cnc5c(N)ncnc54)[C@H](OC)[C@@H]3OP(=O)(O)OC[C@H]2O[C@H]1n1cnc2c(N)ncnc21` the degradation rate was at most 0.001 mol/min/mol enzyme (gdpP residues 84-659; substrate, HPLC; 100 µM, 37 °C, upper limit if undegraded 24 h, together with: enzyme 1 µM).
`O=[N+]([O-])c1ccc(OP(=O)(O)Oc2ccc([N+](=O)[O-])cc2)cc1` has a remaining activity of 99.2% (Cocaine esterase (CES2, Homo sapiens, UniProt O00748); irreversible inhibitor; 5× IC50 or 200 µM, 1 h, preincubation then inhibitor removal, together with: o-nitrophenyl acetate substrate).
`TVNKTERAY` has a translocated peptide of 4 to 5% (Antigen peptide transporter 1/Antigen peptide transporter 2 (Homo sapiens, UniProt Q03518+Q03519); substrate, radiolabelled peptide transport; peptide, LCL721, streptolysin O-permeabilised; concentration not given; baseline: input).
Under activity, `O=S(=O)(c1cccc2cccnc12)N1CC(c2nc(-c3ccc(F)cc3)no2)C1` is recorded as “inactive” (KCNMA1 with beta-3 subunit; HEK293; 30 µM).
With `O=C(O)CCCC[C@@H]1SC[C@@H]2NC(=O)N[C@@H]21` the ΔG° was -8.74 ± 0.07 kcal/mol (Biotin protein ligase (Pyrococcus horikoshii, UniProt O57883); binding, fluorescence titration; 20 °C, together with: α,β-methylene-ATP saturating).
For `C[C@H]1CCCC(=O)CCC/C=C/c2cc(O)cc(O)c2C(=O)O1`, the Km was 20.8 ± 1.77 mM (zhd101 (Clonostachys rosea, UniProt Q8NKB0, D157K); substrate, HPLC; 10 min, pH 5.5, 37 °C, 1% acetonitrile).
`Nc1ncnc2c1ncn2[C@@H]1O[C@@H]2COP(=O)(O)O[C@H]3C[C@H](n4cnc5c(N)ncnc54)O[C@@H]3COP(=O)(O)O[C@H]2[C@H]1F` gave a degradation rate of at most 0.001 mol/min/mol enzyme (gdpP residues 84-659; substrate, HPLC; 100 µM, 37 °C, upper limit if undegraded 24 h, together with: enzyme 1 µM).
Under “decarbamoylation rate constant k3”, `CNC(=O)Oc1ccc2c(c1)[C@]1(C)CCN(C)[C@@H]1N2C` is recorded as 0.681 ± 0.01 h⁻¹ (Cholinesterase (BCHE, Homo sapiens, UniProt P06276); inhibitor, immobilized enzyme reactor, HPLC-UV; immobilized recombinant human enzyme; 30 °C, after near-complete inhibition).
The Emax of `NC(=O)C1(NC(=O)c2nn(Cc3ccc(F)cc3)c3ccccc23)CCCC1` is reported as 89 ± 2% (CNR1; calcium mobilization, agonist; CHO-K1 expressing Gαq16; baseline: CP55,940 maximum).
`isotetrandrine` has a retention factor of 13 (Heat shock protein HSP 90-alpha, C-terminal domain (HSP90AA1, Homo sapiens, UniProt P07900); binding, zonal affinity chromatography; pH 7.4, 25 °C).
The degradation rate of `Nc1ncnc2c1ncn2[C@@H]1O[C@@H]2CO[P@@](=O)(S)O[C@H]3[C@@H](O)[C@H](n4cnc5c(N)ncnc54)O[C@@H]3CO[P@@](=O)(S)O[C@H]2[C@H]1O` is reported as at most 0.001 mol/min/mol enzyme (gdpP residues 84-659; substrate, HPLC; 100 µM, 37 °C, upper limit if undegraded 24 h, together with: enzyme 1 µM).
`NCCCCCCNC(=O)c1ccc(NC(=O)c2ccc(CN(C(=O)c3ccc4c(c3)OCC(=O)N4)C3CC3)cc2)cc1` — result for degradation: “no effect” (Histone-lysine N-methyltransferase NSD2 (NSD2, Homo sapiens, UniProt O96028); compound-induced degradation, degrader, in-cell western; U2OS, UBR1 siRNA knockdown; i=-2,-3,-4).
`CC[C@H](C)[C@H](NC(=O)[C@H](C)NC(=O)[C@H](CO)NC(=O)[C@@H](NC(=O)[C@H](CCC(=O)O)NC(=O)[C@H](CCC(=O)O)NC(=O)[C@H](CCC(N)=O)NC(=O)[C@H](CCCCN)NC(=O)[C@H](CCCNC(=N)N)NC(=O)[C@@H](N)CCCCN)C(C)C)C(=O)N[C@H](C(=O)N[C@H](C(=O)N[C@@H](CCC(N)=O)C(=O)N[C@@H](CCCNC(=N)N)C(=O)N[C@@H](C)C(=O)N[C@@H](Cc1ccc(O)cc1)C(=O)N[C@@H](CCCNC(=N)N)C(=O)N[C@@H](CCCNC(=N)N)C(=O)N[C@@H](Cc1ccc(O)cc1)C(=O)N[C@@H](CC(C)C)C(=O)N[C@@H](CC(C)C)C(=O)N[C@@H](CCCCN)C(=O)N[C@@H](CCC(N)=O)C(=O)N[C@@H](CCCCN)C(=O)N[C@H](C(=O)N[C@@H](CCCCN)C(=O)N[C@@H](CCCCN)C(=O)O)C(C)C)[C@@H](C)CC)C(C)C` — result for “fluorescence emission increase”: 17% (Calmodulin, C-terminal domain (CAM, Paramecium tetraurelia, UniProt P07463); 3 to 1 µM, pH 7.4, 22 °C, Ca2+-bound CaM residues 76-148; baseline: peptide alone).
The peak current of `C[N@@+]1([O-])CCC[C@H]1c1cccnc1` is reported as 44 ± 5% (Neuronal acetylcholine receptor; alpha4/beta2, (α4)3(β2)2 stoichiometry (Homo sapiens, UniProt P17787+P43681); ion current, two-electrode voltage clamp; Xenopus oocytes; 200 µM, together with: ACh 1 µM; baseline: ACh alone).
Under “reduction in bound oligomers”, `N.N.O=C([O-])C1(C(=O)[O-])CCC1.[Pt+2]` is recorded as 15 to 20% (Alpha-synuclein, oligomers (SNCA, Homo sapiens, UniProt P37840); oligomer-vesicle binding, FIDA; 5 µM, together with: 150 nM oligomers, 50 µM DOPG liposomes; baseline: untreated).
`BIM` has an approximate KD of about 0.01 µM (Bcl-2-like protein 1 (BCL2L1, Homo sapiens, UniProt Q07817); bacterial surface display flow cytometry; value is labelling concentration).
For `C=CCCC[C@H](NC(=O)[C@H](CC(C)C)NC(=O)[C@@H](NC(=O)[C@H](CCCNC(=N)N)NC(=O)[C@H](CCCC=C)NC(=O)[C@@H](NC(=O)[C@H](C)NC(=O)[C@H](CCC(=O)O)NC(C)=O)[C@@H](C)CC)[C@@H](C)CC)C(=O)N[C@@H](CCC(N)=O)C(=O)N[C@@H](CC(C)C)C(=O)N[C@@H](CC(C)C)C(=O)N[C@@H](Cc1ccccc1)C(=O)N[C@H](C(=O)N[C@@H](Cc1c[nH]cn1)C(=O)N[C@@H](Cc1ccccc1)C(=O)N[C@@H](CCCNC(=N)N)C(=O)N[C@H](C(=O)NCC(=O)N[C@@H](CCCNC(=N)N)C(=O)N[C@@H](CCC(=O)O)C(=O)N[C@@H](CCCNC(=N)N)C(=O)N[C@@H](CCC(=O)O)C(=O)N[C@@H](CCCNC(=N)N)C(=O)N[C@@H](CCC(=O)O)C(=O)N[C@@H](CCCNC(=N)N)C(=O)N[C@@H](CCC(=O)O)C(N)=O)[C@@H](C)CC)[C@@H](C)CC`, “minimum DNA retardation concentration” read 37 µM (HIV-1 integrase and DNA substrate; DNA binding, gel retardation; 2 h, 37 °C, together with: radiolabelled oligonucleotide DNA).
The kcat/Km of `KQTARKSTGGWW (palmitoyl-Lys9)` is reported as 28.8 ± 7 M⁻¹ s⁻¹ (Histone deacetylase 8 (HDAC8, Homo sapiens, UniProt Q9BY41); substrate, HPLC; peptide; 1 µM, 1 h, pH 8, 37 °C).
For `DNRDGNVYYF`, the Hill coefficient was 1.2 ± 0.1 (Serine endoprotease DegS (degS, Escherichia coli, UniProt P0AEE3, H198P/K243D); substrate; peptide; 23 °C, together with: saturating OMP peptide).
`O=C(Cc1ccccc1I)NC1CCOC1=O` (centres unmarked) gave an activation of 70% (rhlR; reporter gene, agonist; Escherichia coli reporter strain; 100 µM; baseline: BHL 900 µM).
`Clc1ccc(-c2ccc(Cl)c(Cl)c2)c(Cl)c1` gave an EC20 of 10.7 µM (Ryanodine receptor 1 (Oncorhynchus mykiss, UniProt A0A8C7UX14); [3H]ryanodine binding; rainbow trout, skeletal muscle microsomes).
For `NC(=O)c1cccc(C2(NC(=O)c3nn(Cc4ccc(F)cc4)c4ccccc34)CC2)c1`, the Emax was 25 ± 5% (CNR1; calcium mobilization, agonist; CHO-K1 expressing Gαq16; baseline: CP55,940 maximum).
`O=c1c2ccccc2[se]n1-c1ccccc1` has a survival of 100% (Toxin B (tcdB, Clostridioides difficile, UniProt P18177); mouse; 100 nM, 3 days, together with: toxin B 1.0 µg/kg ip).
For `copper-phenanthroline`, “GABA current change” read “no effect” (Gabrg2/GABRB2/Gabra1 (Rattus norvegicus, UniProt P18508+P47870+P62813, C260A/C282A/C312A/C319A/C341A); two-electrode voltage clamp; Xenopus oocytes; 100 µM with phenanthroline 200 µM, 2 min, after DTT, together with: GABA EC50; baseline: initial response).
`CC(C)Oc1ccccc1S(=O)(=O)N1CC(c2nc(-c3ccsc3)no2)C1`: activity “inactive” (KCNMA1 with beta-3 subunit; HEK293; 30 µM).
For `acetyl pepstatin`, the melting temperature was 72.2 °C (Gag-Pol polyprotein, protease (Human immunodeficiency virus type 1 group M subtype B, UniProt P03367); DSC; 28 µM, pH 4.8).
For `CN(C(=O)n1cnc(-c2ccc[n+]([O-])c2)c1)C1CCCCC1`, the remaining activity was 41.8% (Fatty-acid amide hydrolase 1 (Faah, Mus musculus, UniProt O08914); enzyme activity, ex vivo; mouse, brain; oral, 0.1 mg/kg, 48 h; baseline: vehicle).
For `anthraquinone-neomycin`, “binding site size” read 7.5 base triplets (poly(dA)•2poly(dT) DNA triplex; DNA binding, CD titration; concentration not given, pH 5.5, KCl 150 mM).
With `Ac-LDEVD-pNA (N-acetyl, C-pNA; pNA = O=[N+]([O-])c1ccc(N*)cc1)` the kcat/Km was 1330 ± 167 M⁻¹ s⁻¹ (Caspase-8 (CASP8, Homo sapiens, UniProt Q14790); substrate hydrolysis, substrate, colorimetric; pH 7.5).

For quick reference, copied from above:
`O=[N+]([O-])c1ccc(OP(=O)(O)Oc2ccc([N+](=O)[O-])cc2)cc1` has a remaining activity of 99.2% (Cocaine esterase (CES2, Homo sapiens, UniProt O00748); irreversible inhibitor; 5× IC50 or 200 µM, 1 h, preincubation then inhibitor removal, together with: o-nitrophenyl acetate substrate).
The Emax of `NC(=O)C1(NC(=O)c2nn(Cc3ccc(F)cc3)c3ccccc23)CCCC1` is reported as 89 ± 2% (CNR1; calcium mobilization, agonist; CHO-K1 expressing Gαq16; baseline: CP55,940 maximum).
`Clc1ccc(-c2ccc(Cl)c(Cl)c2)c(Cl)c1` gave an EC20 of 10.7 µM (Ryanodine receptor 1 (Oncorhynchus mykiss, UniProt A0A8C7UX14); [3H]ryanodine binding; rainbow trout, skeletal muscle microsomes).
The kcat/Km of `KQTARKSTGGWW (palmitoyl-Lys9)` is reported as 28.8 ± 7 M⁻¹ s⁻¹ (Histone deacetylase 8 (HDAC8, Homo sapiens, UniProt Q9BY41); substrate, HPLC; peptide; 1 µM, 1 h, pH 8, 37 °C).
